Assay results of several laboratories.
Parts stem from different laboratories: compare values within a part only.
UniProt P42336, sequence (whole entry, unmodified, looked up): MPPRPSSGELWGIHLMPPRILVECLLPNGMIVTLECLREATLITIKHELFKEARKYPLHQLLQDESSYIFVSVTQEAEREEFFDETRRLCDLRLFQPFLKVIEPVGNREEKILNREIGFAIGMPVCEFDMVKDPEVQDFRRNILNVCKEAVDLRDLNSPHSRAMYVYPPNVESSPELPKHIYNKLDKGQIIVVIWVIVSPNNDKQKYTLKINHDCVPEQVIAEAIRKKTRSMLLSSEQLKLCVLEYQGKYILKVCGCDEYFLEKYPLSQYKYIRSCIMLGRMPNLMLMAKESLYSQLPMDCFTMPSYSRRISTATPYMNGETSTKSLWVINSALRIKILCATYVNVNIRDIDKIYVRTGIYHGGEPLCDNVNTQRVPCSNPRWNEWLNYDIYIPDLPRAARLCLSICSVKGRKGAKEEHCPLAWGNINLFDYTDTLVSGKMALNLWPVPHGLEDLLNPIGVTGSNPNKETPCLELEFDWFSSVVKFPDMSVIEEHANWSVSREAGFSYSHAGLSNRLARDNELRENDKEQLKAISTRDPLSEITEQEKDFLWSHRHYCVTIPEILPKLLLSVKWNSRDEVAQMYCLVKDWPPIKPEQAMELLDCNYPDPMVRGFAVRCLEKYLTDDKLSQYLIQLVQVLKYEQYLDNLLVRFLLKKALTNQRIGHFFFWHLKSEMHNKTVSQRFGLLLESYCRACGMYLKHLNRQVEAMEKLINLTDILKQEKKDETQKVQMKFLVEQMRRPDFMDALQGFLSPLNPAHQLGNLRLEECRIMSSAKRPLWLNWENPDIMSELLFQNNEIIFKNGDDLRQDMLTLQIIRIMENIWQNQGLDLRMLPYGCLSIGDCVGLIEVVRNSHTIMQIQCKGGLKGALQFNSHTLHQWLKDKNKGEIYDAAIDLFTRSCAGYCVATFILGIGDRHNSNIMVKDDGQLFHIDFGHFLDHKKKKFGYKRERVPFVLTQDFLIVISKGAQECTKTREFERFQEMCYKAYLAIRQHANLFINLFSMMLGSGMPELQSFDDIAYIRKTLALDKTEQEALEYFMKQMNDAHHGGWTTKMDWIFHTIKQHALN
UniProt P51955, sequence (whole entry, looked up): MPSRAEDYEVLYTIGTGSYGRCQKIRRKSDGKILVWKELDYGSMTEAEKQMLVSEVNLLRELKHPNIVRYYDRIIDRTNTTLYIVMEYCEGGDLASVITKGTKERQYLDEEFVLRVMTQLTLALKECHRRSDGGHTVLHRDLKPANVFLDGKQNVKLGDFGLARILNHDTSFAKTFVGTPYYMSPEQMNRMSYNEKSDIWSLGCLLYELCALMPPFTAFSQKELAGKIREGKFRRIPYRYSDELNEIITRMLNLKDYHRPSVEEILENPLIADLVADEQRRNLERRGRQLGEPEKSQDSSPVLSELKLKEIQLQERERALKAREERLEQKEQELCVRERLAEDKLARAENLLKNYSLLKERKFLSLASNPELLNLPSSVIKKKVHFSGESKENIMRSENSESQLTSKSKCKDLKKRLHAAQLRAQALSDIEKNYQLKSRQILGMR
UniProt Q9Y616, sequence (whole entry, looked up): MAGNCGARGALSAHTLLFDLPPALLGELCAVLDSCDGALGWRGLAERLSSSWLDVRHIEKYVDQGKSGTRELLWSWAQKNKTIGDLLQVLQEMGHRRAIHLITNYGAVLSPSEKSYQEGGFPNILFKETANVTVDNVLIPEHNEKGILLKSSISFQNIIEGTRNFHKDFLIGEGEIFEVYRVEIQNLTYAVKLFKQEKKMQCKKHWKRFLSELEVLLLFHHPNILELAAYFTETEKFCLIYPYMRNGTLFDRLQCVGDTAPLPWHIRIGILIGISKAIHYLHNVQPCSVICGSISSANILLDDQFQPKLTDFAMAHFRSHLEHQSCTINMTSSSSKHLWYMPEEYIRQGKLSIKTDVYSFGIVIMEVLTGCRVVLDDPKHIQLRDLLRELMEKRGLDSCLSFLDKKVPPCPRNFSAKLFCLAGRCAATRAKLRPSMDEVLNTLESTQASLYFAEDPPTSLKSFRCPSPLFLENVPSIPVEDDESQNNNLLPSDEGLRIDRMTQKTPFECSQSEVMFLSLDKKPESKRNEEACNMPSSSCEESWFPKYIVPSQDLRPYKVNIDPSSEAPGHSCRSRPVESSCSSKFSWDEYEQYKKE
UniProt P07333, sequence (whole entry, looked up): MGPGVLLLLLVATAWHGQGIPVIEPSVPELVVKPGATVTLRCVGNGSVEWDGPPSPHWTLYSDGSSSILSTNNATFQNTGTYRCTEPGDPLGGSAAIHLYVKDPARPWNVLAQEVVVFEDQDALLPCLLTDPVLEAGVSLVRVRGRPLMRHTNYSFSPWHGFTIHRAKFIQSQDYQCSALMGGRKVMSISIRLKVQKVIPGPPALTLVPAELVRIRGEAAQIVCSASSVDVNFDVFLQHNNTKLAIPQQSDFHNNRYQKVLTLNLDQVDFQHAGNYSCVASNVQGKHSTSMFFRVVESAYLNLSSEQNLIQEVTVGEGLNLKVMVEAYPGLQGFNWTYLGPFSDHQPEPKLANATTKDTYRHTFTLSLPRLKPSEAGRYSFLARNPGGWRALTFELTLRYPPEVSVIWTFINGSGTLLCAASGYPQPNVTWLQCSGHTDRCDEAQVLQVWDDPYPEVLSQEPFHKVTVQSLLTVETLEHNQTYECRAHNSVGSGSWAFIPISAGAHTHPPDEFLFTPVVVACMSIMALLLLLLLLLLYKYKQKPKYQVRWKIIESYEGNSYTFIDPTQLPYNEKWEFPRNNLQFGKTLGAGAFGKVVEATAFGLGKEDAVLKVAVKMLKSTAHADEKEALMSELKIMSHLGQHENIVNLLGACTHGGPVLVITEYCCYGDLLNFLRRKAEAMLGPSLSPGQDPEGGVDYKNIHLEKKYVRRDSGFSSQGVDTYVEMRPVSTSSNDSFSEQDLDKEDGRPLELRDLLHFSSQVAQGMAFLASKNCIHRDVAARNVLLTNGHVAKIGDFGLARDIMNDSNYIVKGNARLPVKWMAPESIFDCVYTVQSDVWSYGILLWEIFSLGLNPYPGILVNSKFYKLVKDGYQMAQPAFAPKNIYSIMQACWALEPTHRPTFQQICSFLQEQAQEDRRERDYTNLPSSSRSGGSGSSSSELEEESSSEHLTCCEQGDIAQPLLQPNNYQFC
UniProt Q8NE63, sequence (whole entry, looked up): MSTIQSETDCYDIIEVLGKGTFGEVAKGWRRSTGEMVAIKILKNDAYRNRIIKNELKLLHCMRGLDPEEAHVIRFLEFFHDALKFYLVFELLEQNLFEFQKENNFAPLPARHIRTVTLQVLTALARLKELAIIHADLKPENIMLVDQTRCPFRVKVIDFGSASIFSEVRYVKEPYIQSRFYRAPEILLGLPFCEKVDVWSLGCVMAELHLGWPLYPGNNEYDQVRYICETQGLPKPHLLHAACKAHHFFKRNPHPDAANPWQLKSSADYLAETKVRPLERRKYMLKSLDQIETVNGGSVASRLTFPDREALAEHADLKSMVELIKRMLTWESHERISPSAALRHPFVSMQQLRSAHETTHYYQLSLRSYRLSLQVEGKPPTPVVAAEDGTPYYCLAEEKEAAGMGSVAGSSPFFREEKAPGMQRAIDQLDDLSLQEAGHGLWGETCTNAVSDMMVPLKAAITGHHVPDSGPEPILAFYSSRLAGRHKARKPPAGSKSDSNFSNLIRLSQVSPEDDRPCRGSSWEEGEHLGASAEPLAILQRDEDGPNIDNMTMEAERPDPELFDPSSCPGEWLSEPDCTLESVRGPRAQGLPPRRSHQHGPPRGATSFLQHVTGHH
UniProt Q99755, sequence (whole entry, looked up): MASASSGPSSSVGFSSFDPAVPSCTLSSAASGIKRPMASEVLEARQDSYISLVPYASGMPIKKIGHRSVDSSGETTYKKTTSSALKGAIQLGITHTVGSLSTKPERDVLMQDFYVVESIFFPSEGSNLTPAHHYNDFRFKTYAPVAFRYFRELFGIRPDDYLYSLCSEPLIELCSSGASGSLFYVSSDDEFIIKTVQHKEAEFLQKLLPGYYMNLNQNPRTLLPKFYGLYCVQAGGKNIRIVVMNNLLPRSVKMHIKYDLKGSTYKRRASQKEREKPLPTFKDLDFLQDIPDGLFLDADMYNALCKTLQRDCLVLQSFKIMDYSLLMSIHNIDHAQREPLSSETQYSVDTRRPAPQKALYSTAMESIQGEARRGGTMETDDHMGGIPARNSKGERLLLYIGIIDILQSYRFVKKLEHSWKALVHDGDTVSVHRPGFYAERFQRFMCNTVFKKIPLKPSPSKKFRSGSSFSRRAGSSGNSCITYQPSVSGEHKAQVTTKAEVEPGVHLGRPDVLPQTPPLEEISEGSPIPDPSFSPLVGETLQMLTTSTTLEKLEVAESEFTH
UniProt Q00526, sequence (whole entry, looked up): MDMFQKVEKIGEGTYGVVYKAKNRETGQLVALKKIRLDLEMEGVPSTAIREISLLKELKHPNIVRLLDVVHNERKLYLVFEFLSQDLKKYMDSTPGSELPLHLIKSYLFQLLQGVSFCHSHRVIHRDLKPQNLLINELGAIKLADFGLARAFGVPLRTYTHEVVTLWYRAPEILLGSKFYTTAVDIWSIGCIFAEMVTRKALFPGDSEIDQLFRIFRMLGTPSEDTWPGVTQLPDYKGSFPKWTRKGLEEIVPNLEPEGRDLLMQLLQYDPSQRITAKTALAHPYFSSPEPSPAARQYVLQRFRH

Study 1
SMILES: CCN1/C(=C/C(C)=O)Sc2ccc(OC)cc21
Read-out: enzyme activity
Mode: inhibitor
Concentration: 0.5 µM
Baseline: control
target	remaining activity [%]
SRC (Homo sapiens, UniProt P12931)	94.4
Insulin receptor (INSR, Homo sapiens, UniProt P06213)	101
HIPK1 (Homo sapiens, UniProt Q86Z02)	95
PRKX (Homo sapiens, UniProt P51817)	96.6
FLT4 (Homo sapiens, UniProt P35916)	99.7
TAOK3 (Homo sapiens, UniProt Q9H2K8)	95.6
ITK (Homo sapiens, UniProt Q08881)	102
FER (Homo sapiens, UniProt P16591)	87.9
PASK (Homo sapiens, UniProt Q96RG2)	72.8
MARK3 (Homo sapiens, UniProt P27448)	100
AKT1 (Homo sapiens, UniProt P31749)	90.1
Cyclin-dependent kinase 3, with cyclin E (CDK3, Homo sapiens, UniProt Q00526)	91.5
FYN (Homo sapiens, UniProt P06241)	99.1
NLK (Homo sapiens, UniProt Q9UBE8)	103
MATK (Homo sapiens, UniProt P42679)	89.2
ALK (Homo sapiens, UniProt Q9UM73)	105
FGR (Homo sapiens, UniProt P09769)	91.8
NEK11 (Homo sapiens, UniProt Q8NG66)	104
CDC42BPA (Homo sapiens, UniProt Q5VT25)	85
LIM domain kinase 1 (LIMK1, Homo sapiens, UniProt P53667)	108
PKN1 (Homo sapiens, UniProt Q16512)	100
STK25 (Homo sapiens, UniProt O00506)	98

Study 2
SMILES: COc1ccc2c(c1)O[C@@H](c1ccc(OC)c(OC)c1)C[C@H]2NC(=O)C1(c2ccc3c(c2)OC(F)(F)O3)CC1
Read-out: cell-free assay
Technique: competition with immobilised ligand
Concentration: 1 µM
target	remaining binding [%]
IRAK3 (Homo sapiens, UniProt Q9Y616)	85
CSNK2A1 (Homo sapiens, UniProt P68400)	94
CSF1R (Homo sapiens, UniProt P07333)	100
STK38 (Homo sapiens, UniProt Q15208)	91
RIPK4 (Homo sapiens, UniProt P57078)	67
HIPK3 (Homo sapiens, UniProt Q9H422)	77
LATS1 (Homo sapiens, UniProt O95835)	92
Tyrosine-protein kinase ABL1, non-phosphorylated (ABL1, Homo sapiens, UniProt P00519)	86
EGFR (Homo sapiens, UniProt P00533, del747-750/T751S)	100
SGK1 (Homo sapiens, UniProt O00141)	85
MAPK12 (Homo sapiens, UniProt P53778)	100
PIP5K1A (Homo sapiens, UniProt Q99755)	72
HIPK2 (Homo sapiens, UniProt Q9H2X6)	96
NEK2 (Homo sapiens, UniProt P51955)	97
ERN1 (Homo sapiens, UniProt O75460)	100
PIK3CA (Homo sapiens, UniProt P42336)	86
MAP3K3 (Homo sapiens, UniProt Q99759)	84

Study 3
Target: Calcium/calmodulin-dependent protein kinase type II subunit alpha (CAMK2A, Homo sapiens, UniProt Q9UQM7)
UniProt Q9UQM7, sequence (whole entry, looked up): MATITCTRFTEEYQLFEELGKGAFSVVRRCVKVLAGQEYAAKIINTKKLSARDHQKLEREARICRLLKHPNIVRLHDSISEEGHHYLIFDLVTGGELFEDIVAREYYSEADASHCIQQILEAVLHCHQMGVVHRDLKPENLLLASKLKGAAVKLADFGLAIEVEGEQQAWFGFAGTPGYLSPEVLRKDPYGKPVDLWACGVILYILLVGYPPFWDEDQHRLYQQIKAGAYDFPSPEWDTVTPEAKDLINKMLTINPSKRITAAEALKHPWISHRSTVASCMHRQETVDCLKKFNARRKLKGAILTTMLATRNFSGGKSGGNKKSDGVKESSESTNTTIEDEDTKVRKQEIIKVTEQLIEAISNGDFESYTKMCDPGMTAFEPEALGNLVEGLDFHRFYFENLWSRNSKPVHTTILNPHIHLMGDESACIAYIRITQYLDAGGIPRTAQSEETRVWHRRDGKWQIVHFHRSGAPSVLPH
Read-out: enzyme activity
Mode: inhibitor
Concentration: 10 µM
SMILES	inhibition
CCOC(=O)C1=C(C)NC(C)=C(C(=O)OC)C1c1cccc([N+](=O)[O-])c1 (stereo not shown)	-16%
Oc1cc2c(cc1O)[C@@H]1c3ccc(O)c(O)c3OC[C@]1(O)C2	8%
COC(=O)[C@H](Cc1ccccc1)NC(=O)[C@H](CC(=O)O)NCCC(C)(C)C	8%
Cc1ccc(S(=O)(=O)NC(=O)NN2CC3CCC[C@@H]3C2)cc1 (stereo in doubt)	4%
Oc1cc(O)cc(/C=C/c2ccc(O)c(O)c2)c1	56%
CC(=O)Oc1cc(C(F)(F)F)ccc1C(=O)O	-6%
C[C@]12CCC(=O)C=C1CC[C@@H]1[C@@H]2[C@@H](O)C[C@@]2(C)[C@H]1CC[C@]2(O)C(=O)COC(=O)CCC(=O)O	-19%
Cc1cc(O)cc(C)c1Cl	-12%
CC(=O)c1ccccc1O	19%
C=C[C@@]1(C)CC(=O)[C@]2(O)[C@@]3(C)[C@@H](O)CCC(C)(C)[C@@H]3[C@H](O)[C@H](OC(C)=O)[C@@]2(C)O1	-30%
C/C=C(\C)C(=O)OC1c2c(ccc3ccc(=O)oc23)OC(C)(C)C1OC(=O)/C(C)=C/C (stereo not shown)	3%
OCCN1CCN(CC/C=C2/c3ccccc3Sc3ccc(C(F)(F)F)cc32)CC1	7%
CCOC(=O)NCCCC(=O)NCCc1ccccc1	-21%
O=C(COc1ccc(Cl)cc1)N1CCN(Cc2ccc3c(c2)OCO3)CC1	6%
C[C@H]1O[C@@H](O[C@H]2CC[C@@]3(C)[C@@H](CC[C@]4(C)[C@@H]3C=CC3=C5CC(C)(C)CC[C@]5(CO)[C@H](O)C[C@]34C)[C@]2(C)CO)[C@H](O)[C@@H](O)[C@H]1O	11%
CO[C@@]1(NC(=O)[C@H](C(=O)O)c2ccc(O)cc2)C(=O)N2C(C(=O)O)=C(CSc3nnnn3C)CO[C@@H]21	-9%
CC(COc1ccccc1)NC(C)C(O)c1ccc(O)cc1 (stereo not shown)	-7%

Study 4
SMILES: CN1CCN(C(=O)c2ccc(NC(=O)Nc3ccc(N(C)c4ccnc(Nc5ccc(CS(C)(=O)=O)cc5)n4)cc3)cc2)CC1
Concentration: 1 µM
target	assay	setting	scale	remaining binding [%]
PIK3CA (Homo sapiens, UniProt P42336, H1047Y)	competitive binding panel		baseline: vehicle	100
MAP3K11 (Homo sapiens, UniProt Q16584)	competitive binding panel, item: MLK3		baseline: vehicle	91
MAPK13 (Homo sapiens, UniProt O15264)	competitive binding	p38-delta		100
PIK3CD (Homo sapiens, UniProt O00329)	competitive binding panel		baseline: vehicle	100
NEK2 (Homo sapiens, UniProt P51955)	competitive binding panel		baseline: vehicle	89
Aurora kinase B (AURKB, Homo sapiens, UniProt Q96GD4)	competitive binding panel		baseline: vehicle	0.4
FGFR3 (Homo sapiens, UniProt P22607)	competitive binding panel		baseline: vehicle	100
Aurora kinase A (AURKA, Homo sapiens, UniProt O14965)	competitive binding panel		baseline: vehicle	0
HIPK4 (Homo sapiens, UniProt Q8NE63)	competitive binding panel		baseline: vehicle	74
EPHA8 (Homo sapiens, UniProt P29322)	competitive binding panel		baseline: vehicle	89
PIK3CA (Homo sapiens, UniProt P42336)	competitive binding panel		baseline: vehicle	98

Excerpt of the above (study 3):
SMILES	inhibition
Cc1ccc(S(=O)(=O)NC(=O)NN2CC3CCC[C@@H]3C2)cc1 (stereo in doubt)	4%
Cc1cc(O)cc(C)c1Cl	-12%
C[C@]12CCC(=O)C=C1CC[C@@H]1[C@@H]2[C@@H](O)C[C@@]2(C)[C@H]1CC[C@]2(O)C(=O)COC(=O)CCC(=O)O	-19%
CC(=O)c1ccccc1O	19%
COC(=O)[C@H](Cc1ccccc1)NC(=O)[C@H](CC(=O)O)NCCC(C)(C)C	8%
Oc1cc2c(cc1O)[C@@H]1c3ccc(O)c(O)c3OC[C@]1(O)C2	8%
O=C(COc1ccc(Cl)cc1)N1CCN(Cc2ccc3c(c2)OCO3)CC1	6%
CC(COc1ccccc1)NC(C)C(O)c1ccc(O)cc1 (stereo not shown)	-7%
C=C[C@@]1(C)CC(=O)[C@]2(O)[C@@]3(C)[C@@H](O)CCC(C)(C)[C@@H]3[C@H](O)[C@H](OC(C)=O)[C@@]2(C)O1	-30%
